Results collected from several papers.
Numbered parts are unrelated; each lists some results of a single study.

Set 1 — method: protein binding microarray; form: double-stranded DNA, one strand shown; medium: in vitro; tested at: not given; baseline: not given; reading: higher = stronger binding
Target: Histone acetyltransferase KAT6A, winged helix 1, GST fusion (KAT6A, Homo sapiens, UniProt Q92794, residues 1-85)
Notes: 8-mer, flanks averaged, mean of 2 arrays, mostly near background
Target sequence (chain): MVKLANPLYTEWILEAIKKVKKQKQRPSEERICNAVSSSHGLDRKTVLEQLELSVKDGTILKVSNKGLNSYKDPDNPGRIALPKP
| Strand | E-score |
| --- | --- |
| CCGTGGTC | 0.182 |
| ACCATACG | 0.108 |
| AAAGGGGT | -0.157 |
| AAGAAGAG | -0.111 |
| GGCTAGGA | -0.189 |
| AGGCCCGG | 0.144 |
| GGTTATGA | -0.129 |
| CGCATTTA | 0.0666 |
| GAGTTGCC | 0.104 |
| ACGATGGC | -0.0855 |
| CTCGATCC | -0.175 |
| CGACGTAC | -0.0669 |
| AATCTCGC | -0.00893 |
| AATAGGCT | -0.0436 |
| AAAAACAC | -0.141 |
| CACCTCAG | -0.154 |
| AAAAAGTG | -0.125 |
| AGGCCGAT | 0.0886 |
| ACCAGTAG | -0.192 |

Set 2 — method: protein-binding microarray; form: double-stranded DNA, one strand shown; medium: in vitro; tested at: not given; reading: higher = stronger binding
Target: Transcriptional repressor CTCF (CTCF, Homo sapiens, UniProt P49711, residues 1-727, full length assumed)
UniProt P49711, sequence (whole entry, looked up): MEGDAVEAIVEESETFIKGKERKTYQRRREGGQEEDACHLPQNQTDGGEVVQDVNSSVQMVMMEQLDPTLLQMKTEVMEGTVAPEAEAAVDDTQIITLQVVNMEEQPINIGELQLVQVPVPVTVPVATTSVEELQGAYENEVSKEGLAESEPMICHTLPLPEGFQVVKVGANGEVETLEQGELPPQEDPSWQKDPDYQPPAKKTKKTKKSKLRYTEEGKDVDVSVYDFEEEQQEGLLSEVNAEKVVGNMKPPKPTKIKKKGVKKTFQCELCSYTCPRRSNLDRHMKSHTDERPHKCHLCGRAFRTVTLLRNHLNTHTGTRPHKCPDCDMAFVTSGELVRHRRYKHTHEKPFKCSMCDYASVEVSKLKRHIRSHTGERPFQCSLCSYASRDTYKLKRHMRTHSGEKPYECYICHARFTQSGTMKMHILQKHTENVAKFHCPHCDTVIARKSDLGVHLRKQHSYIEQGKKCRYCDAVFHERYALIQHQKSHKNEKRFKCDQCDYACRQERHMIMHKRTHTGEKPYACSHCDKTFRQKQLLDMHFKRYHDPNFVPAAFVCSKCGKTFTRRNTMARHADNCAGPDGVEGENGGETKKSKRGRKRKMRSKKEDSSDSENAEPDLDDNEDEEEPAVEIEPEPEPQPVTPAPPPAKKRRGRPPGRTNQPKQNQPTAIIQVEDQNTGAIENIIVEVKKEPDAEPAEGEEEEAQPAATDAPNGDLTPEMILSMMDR
Notes: k-mer, scored over probes, only values ≥0.25
| Strand | E-score |
| --- | --- |
| GATATATA | 0.321 |
| TTACATAA | 0.304 |
| GTGTAACA | 0.25 |
| CTATATAA | 0.274 |
| GTATTATA | 0.354 |
| AACTTAAC | 0.256 |
| AAAAGTAC | 0.276 |
| ATATTCAA | 0.253 |
| TAATTGTA | 0.287 |
| AATAGTAA | 0.289 |
| GGCGCGTA | 0.334 |
| ACGTTTGA | 0.285 |
| CTTATAAA | 0.251 |
| ACTAATAA | 0.301 |
| ATGCGCTA | 0.328 |
| AACATGTA | 0.344 |
| ATACATGA | 0.275 |
| AGTATATA | 0.339 |
| AAAAAGCT | 0.327 |
| GGCGTATA | 0.256 |
| CATGCGCC | 0.298 |
| AAATACGT | 0.262 |
| AATAACGA | 0.274 |
| AACAGCGC | 0.346 |
| GTATTTAA | 0.283 |

Set 3 — method: universal PBM; form: double-stranded DNA, one strand shown; medium: in vitro; tested at: not given; reading: higher = stronger binding
Target: Sal-like protein 4, full length isoform B (SALL4, Homo sapiens, UniProt Q9UJQ4-2, residues 1-616)
Notes: 8-mer, flanks averaged, mean of replicates
Residues (chain): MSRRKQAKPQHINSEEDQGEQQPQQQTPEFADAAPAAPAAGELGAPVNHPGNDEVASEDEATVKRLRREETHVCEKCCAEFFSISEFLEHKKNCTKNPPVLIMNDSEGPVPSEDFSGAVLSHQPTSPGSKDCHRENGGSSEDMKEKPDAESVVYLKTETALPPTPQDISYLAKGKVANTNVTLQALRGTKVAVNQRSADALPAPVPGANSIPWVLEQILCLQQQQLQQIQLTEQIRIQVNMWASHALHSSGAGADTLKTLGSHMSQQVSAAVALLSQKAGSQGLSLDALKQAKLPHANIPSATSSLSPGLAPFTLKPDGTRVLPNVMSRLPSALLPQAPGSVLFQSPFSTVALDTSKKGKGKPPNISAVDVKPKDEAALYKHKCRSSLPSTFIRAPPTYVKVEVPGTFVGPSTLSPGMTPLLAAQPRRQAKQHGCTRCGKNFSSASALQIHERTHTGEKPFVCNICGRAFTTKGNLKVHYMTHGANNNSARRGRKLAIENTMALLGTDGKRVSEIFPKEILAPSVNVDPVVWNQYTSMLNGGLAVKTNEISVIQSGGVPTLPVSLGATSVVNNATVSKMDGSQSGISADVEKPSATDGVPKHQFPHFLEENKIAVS
| Strand | E-score |
| --- | --- |
| GGTGTTAA | 0.0259 |
| TCCGACAA | 0.0669 |
| AAGGAACA | -0.0775 |
| GGGGATCA | -0.204 |
| GACGCTCA | -0.293 |
| GCTGAGAC | -0.152 |
| AATAGGCA | 0.269 |
| CTAGCGCA | -0.224 |
| AGAACCTC | -0.167 |
| CACGTCTG | 0.105 |
| GGCCGACC | -0.34 |
| CACATCTA | 0.18 |
| ACGCACCC | -0.255 |
| GAATTGGC | -0.0228 |
| CTTCCCGC | -0.174 |
| ATCGTCCG | -0.147 |
| AGTACTCG | -0.00488 |
| CCAGTCCC | -0.157 |
| AAGCGGGG | -0.115 |
| AAAAGGTC | -0.00774 |
| CTCACGCA | -0.0474 |
| AGCGGGGC | -0.355 |
| GCGCGCGA | -0.312 |
| GACCTGGC | -0.303 |
| CTCACAAC | -0.00217 |

Set 4 — method: RNA Bind-n-Seq; form: RNA; medium: in vitro; tested at: 365 nM; baseline: no-protein control; reading: higher = stronger binding
Target: RNA binding protein fox-1 homolog 2, RRM domain, GST-SBP tag (RBFOX2, Homo sapiens, UniProt O43251-10, residues 100-194)
Notes: natural RNA segment, single round, ends assumed
Residues (chain): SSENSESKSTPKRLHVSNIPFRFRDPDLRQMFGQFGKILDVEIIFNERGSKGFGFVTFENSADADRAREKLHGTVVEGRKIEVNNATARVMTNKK
| Strand | RBNS enrichment (R) |
| --- | --- |
| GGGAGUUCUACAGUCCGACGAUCCAAGUUUUUCUAAAUAAAUGUAACUUUUCACAAGAGUCAACAUUAAAAAAUAAAUUAUUUAAGAACAGAUUGUGAUGUUUUCAAUUGAUGAAUGCUGAAAGAAAAAGAAAUGGAAUUCUCGGGUGCCAA | 1.25 |
| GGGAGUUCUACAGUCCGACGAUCUGGGUACUCCAGGCACACACCUUUCUGAAAUCCUUCUCCAGCCAGCUGCUGCAGACAAAAGAUCACAUUUCUGGGAAGAUGAGAACUUGUUUCCAGACCAGCAUCCAGUGUGGAAUUCUCGGGUGCCAA | 0.717 |
| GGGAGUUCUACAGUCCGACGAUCACAGGGAAAUUUUGGGGUGGGAGUAAAAGCAAAUUUGGAAAAUAAACUUUUUUUUGUUGAAUCUUUUCUGAUCUGGAUUUUCCAUUCUUGCUAUGGCUGCCUCUUGUAACUGGAAUUCUCGGGUGCCAA | 0.805 |
| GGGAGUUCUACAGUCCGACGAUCUCAACCUAAGUUGGAAACAGAAAGUGUAAUUAAUAUAACUUAAAUGCAUGUUUGGCAGUUCCAUGUUACAGUCCAUUAGCGAGUGAACUUAGUGCCACAGGUAUUCAUUUUGGAAUUCUCGGGUGCCAA | 2.11 |
| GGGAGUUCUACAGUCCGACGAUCAUUGUGAGAGAUUUGUCACCAAUCAUCACUGGUUCCUCCUUAAAAAUUAAAAAGUAACUUCUGUGUACCGAAUGAAUGUUGACUUAAAUACGGAGAGAGUGAGUCUCAAGUGGAAUUCUCGGGUGCCAA | 0.487 |
| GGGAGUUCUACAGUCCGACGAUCCUCUCACUCCUCUGAGGCUUUCCUGGGGCCUCCUCCCAUCCUGCCAUGAGCAAUUGUUUGCUCUUGAAAACCUCACUGCAAGGCUGAGGCUGAGCUUCUGAUUCACCACCUGGAAUUCUCGGGUGCCAA | 0.351 |
| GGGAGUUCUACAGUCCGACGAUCUAUAAGAAUCUGGAUUAUCUAACAUUGUUAGCCCUGUGUAUGUACAGUUCAAAAAGUUCAUUUAUAAAAGUAGUUUCCUGUUCCUAGUGUGAUGUAUCACAAAUUGUGCUUGGAAUUCUCGGGUGCCAA | 0.524 |
| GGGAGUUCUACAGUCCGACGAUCCAAGUGUUAUAAAAAAAAAGAAAAAGAACAAAGAAACCCUUUAUUUCAUUAAAUGAUUUUUUCUGGUGGUUGUCAAGAAACAAAAGACCAAAAGAGCCUUUUUGUCUUUCUGGAAUUCUCGGGUGCCAA | 0.588 |
| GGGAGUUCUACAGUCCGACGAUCUUUUUAAAAAUCCCACGUGUGAAAGUUUACUGGCUUUAUUAGCAAGUUCCUUUUUACUUCAAGCUACUUUUUAUAAAAAAGAACAUUUUUCCAGUGUGGUUUUUAACAGAUGGAAUUCUCGGGUGCCAA | 0.557 |
| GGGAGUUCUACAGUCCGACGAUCAUUGUUACAAAUUGUAGUGCCUGAAAACACUCUUAAGCUGAUUGUCUUAACAAAAUGAAAGUUCUCCAAAGACAAAACAGAACAAUUAUUAUAACAAAAUAAUUAUGGUUUGGAAUUCUCGGGUGCCAA | 0.445 |
| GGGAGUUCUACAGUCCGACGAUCAUCCGUCACAUUCAUCUCAUAAUAGAAACACGUUCAUAUUCCAGUGGUCAAUGUAGAUUUCAAGUUGAAAGGCAGUCCCUUUAGUUGGGGGCUGUCCAGAGCUGCAGCAGUGGAAUUCUCGGGUGCCAA | 0.337 |
| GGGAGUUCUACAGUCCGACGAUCUAUUGAGAGCUGCAGUAGUUUGCUUUUAGUAUUGUUGUUGCACUUGAGCAGAGACAAACCUUUAUUCAUAGUGUCUACAGGACAUAUGAAGAGUGCAAUGGCAAAACAAGUGGAAUUCUCGGGUGCCAA | 0.387 |

Excerpt of the above (set 2):
| Strand | E-score |
| --- | --- |
| CTATATAA | 0.274 |
| GTATTATA | 0.354 |
| AACTTAAC | 0.256 |
| AAAAGTAC | 0.276 |
| ATATTCAA | 0.253 |
| TAATTGTA | 0.287 |
| AATAGTAA | 0.289 |
